Results of several laboratories.
Each numbered part is a random draw from the data of one study; scales do not carry over between parts. Substitutions count along the parent as printed.

Series 1 — method: protein binding microarray; form: double-stranded DNA, one strand shown; medium: in vitro; concentration: not given; reference: not given; reading: higher = stronger binding; quantity: E-score
Target: Histone acetyltransferase KAT6A, winged helix 2, GST fusion (KAT6A, Homo sapiens, UniProt Q92794, residues 85-181)
Setting: 8-mer, flanks averaged, mean of 2 arrays, mostly near background
Target sequence (chain): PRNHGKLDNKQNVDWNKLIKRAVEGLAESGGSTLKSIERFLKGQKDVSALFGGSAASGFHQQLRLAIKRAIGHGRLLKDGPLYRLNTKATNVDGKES
ACAACCGA: 0.0443
ATGATTGG: -0.0999
AAACTAAT: 0.216
TATGCCCA: -0.0134
CGGGCCGA: 0.0678
GCATCAAA: 0.072
GTTGCTCA: 0.117
GTCATGAA: 0.0112
CCAGGTCC: 0.0685
CTTTGTGC: 0.0846
CATTCACA: -0.111
CAGGCTCC: 0.0395
CTATATAG: -0.177
GTGCTATA: 0.0438

Series 2 — method: universal PBM; form: double-stranded DNA, one strand shown; medium: in vitro; concentration: not given; reading: higher = stronger binding; quantity: E-score
Target: Sal-like protein 4, full length isoform B (SALL4, Homo sapiens, UniProt Q9UJQ4-2, residues 1-616)
Setting: 8-mer, flanks averaged, mean of replicates
Target sequence (chain): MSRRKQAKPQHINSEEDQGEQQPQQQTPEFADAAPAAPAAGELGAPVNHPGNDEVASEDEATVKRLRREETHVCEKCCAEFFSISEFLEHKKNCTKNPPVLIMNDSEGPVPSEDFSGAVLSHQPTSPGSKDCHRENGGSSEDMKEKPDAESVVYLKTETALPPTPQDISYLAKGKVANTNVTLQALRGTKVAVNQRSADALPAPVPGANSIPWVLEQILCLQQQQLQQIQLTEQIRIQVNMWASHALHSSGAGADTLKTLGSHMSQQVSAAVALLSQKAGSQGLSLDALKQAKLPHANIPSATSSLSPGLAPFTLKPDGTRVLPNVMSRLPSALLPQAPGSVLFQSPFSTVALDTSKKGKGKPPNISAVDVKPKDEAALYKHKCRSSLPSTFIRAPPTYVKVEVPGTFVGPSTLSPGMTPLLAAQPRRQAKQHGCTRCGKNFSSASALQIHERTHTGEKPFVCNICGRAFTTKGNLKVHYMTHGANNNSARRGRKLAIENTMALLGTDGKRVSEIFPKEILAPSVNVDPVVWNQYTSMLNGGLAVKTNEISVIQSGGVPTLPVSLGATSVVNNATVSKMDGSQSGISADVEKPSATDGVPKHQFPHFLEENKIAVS
AATTTTAC: 0.346
AGCTTTTC: 0.0219
ACATTGGA: 0.0794
ATGGTAGC: -0.0432
AACTATCC: -0.0646
CAAAATGG: 0.149
CAGCTCCG: -0.233
GTAACAAC: 0.0965
GAAAGAGC: -0.115
ACCATCTG: -0.227
GCTGCCAA: -0.219
GCCGGCCA: -0.251
AACACTTA: 0.214

Series 3 — target: CCNE1, cyclin fold, Cln2 fusion (human); method: yeast growth competition, sequencing; medium: yeast; setting: weak parent motif; reference: not given; reading: higher = stronger binding; quantity: normalised enrichment score
Starting sequence: CDC6 docking peptide (human); TLKGRRLVFDNQL
L2T: -0.119
L13I: 0.288
R6G: 0.115
G4K: -0.0681
G4I: 1.87
K3C: 0.958
L2G: 0.381
D10R: 0.198
G4V: 0.291

Single results of other studies
PhoQ, residues 284 288 289 292 302 303 SMMNNA
fold induction (PhoP, residues 12 14 15 18 19 NHFIF (Escherichia coli, UniProt P23836); Sort-seq, measured: YFP reporter; E. coli; PhoQ-PhoP variant library, together with: 10 µM Mg2+; reference: high Mg2+ state, higher = stronger signaling): 0.594

A few entries again (series 1):
GTCATGAA: 0.0112
CCAGGTCC: 0.0685
CTTTGTGC: 0.0846
CATTCACA: -0.111
CAGGCTCC: 0.0395
CTATATAG: -0.177
